Results gathered from unrelated publications.
Every numbered part comes from another study and shows a few of its results, in no order. Substitutions count along the parent as printed.

Set 1 — method: protein binding microarray; form: double-stranded DNA, one strand shown; sample: in vitro; concentration: not given; reference: not given; reading: higher = stronger binding
Target: Histone acetyltransferase KAT6A, winged helix 1, GST fusion (KAT6A, Homo sapiens, UniProt Q92794, residues 1-85)
Notes: 8-mer, flanks averaged, mean of 2 arrays, mostly near background
Target sequence (chain): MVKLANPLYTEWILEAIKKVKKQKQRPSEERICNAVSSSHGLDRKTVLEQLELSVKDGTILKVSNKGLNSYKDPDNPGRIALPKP
Sequence	E-score
ACCCGCCG	0.463
CCTAAAGG	-0.0244
CTAATTAA	-0.0616
ACGGTGTG	0.0631
ATGGCTCC	-0.0811
AAACCCAG	-0.304
GCCTATAA	-0.116
CTACCCTC	0.0222
AAGTCGTC	-0.0148
GCAGCTCC	-0.0776
AAGGAACG	0.101
GGTCTCCA	-0.164
CCCTGTTA	-0.162
TCAATAGA	-0.212
TAAGATGA	-0.19
CCAAGTAG	-0.245
ACCTATTC	0.014
ACGCATGG	0.207
AGTCTCAT	-0.212
AGATCGCC	0.136
ATATGGCA	0.0975
AGAGCTAT	-0.0762
CTTTCACA	-0.119
CGTCGCGA	0.337
TAGTCTAA	-0.0853

Set 2 — method: RNA Bind-n-Seq; form: RNA; sample: in vitro; concentration: 100 nM; reference: input RNA pool; reading: higher = stronger binding
Target: RING finger protein unkempt homolog, zinc fingers 1-6, SBP tag (UNK, Homo sapiens, UniProt Q9C0B0, residues 30-357)
UniProt Q9C0B0, sequence (30-357, looked up): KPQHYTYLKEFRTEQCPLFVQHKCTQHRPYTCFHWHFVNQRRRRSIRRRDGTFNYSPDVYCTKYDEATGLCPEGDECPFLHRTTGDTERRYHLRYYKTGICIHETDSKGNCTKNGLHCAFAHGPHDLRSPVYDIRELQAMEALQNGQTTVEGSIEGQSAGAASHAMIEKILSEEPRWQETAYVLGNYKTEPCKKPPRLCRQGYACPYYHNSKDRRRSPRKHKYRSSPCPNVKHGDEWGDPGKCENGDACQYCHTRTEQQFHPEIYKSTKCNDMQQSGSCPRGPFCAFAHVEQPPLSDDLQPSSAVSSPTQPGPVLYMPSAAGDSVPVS
Notes: RNA with constant flanks, vertebrate orthologous sites, ends assumed
Sequence	bound/input enrichment
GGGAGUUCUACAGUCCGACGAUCAUCAUGGCCGCUUUUACCUGCCUCAAUGAGGUAACGUCUCCCCUGACACUGGGUUGGCACCAGACCCCAUCACACCUAAUAUGUCUUUCCACAUUUUAUCUCUCUAUGCUCACACUCAUCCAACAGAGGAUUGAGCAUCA	1.27 ratio
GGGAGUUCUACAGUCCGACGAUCUUUACAAUCUUCUUCUUAAACAUAUUUUCAAACAAUAGGAAACUUUUUUUAUUUUUACAGUUUAGUAUCUGGUUUCUACAUGAAGACUAAACUCACGCUUAUAGCUAAAUGUGGUCUCUGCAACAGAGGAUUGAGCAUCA	1.18 ratio
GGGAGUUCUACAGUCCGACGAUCGGUUGAUGUUUUAAAGAAUCACUUGGUAAAAGAAGGUCGGGUUGAUGAAGAAAUUGCACUUAGAAUUAUUAAUGAGGGCGCUGCCAUCCUUCGGAGAGAGAAAACUAUGAUAGAAGUAGACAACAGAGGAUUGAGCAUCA	1.16 ratio
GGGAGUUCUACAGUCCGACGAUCUGGCGAUGAUUUUUUCCACUGGUUUUUGCUUAAAAGAAGAAGUGGACCCAUGCACAUUUAUAUAGCUUUCUAAUAGCGUUAACCAAUGCCUUUUUAGACAUAUUUUUGAUGUAUAUAUCUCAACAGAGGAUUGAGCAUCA	0.951 ratio
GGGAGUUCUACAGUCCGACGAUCCCACACCAGAUACUUUAACUGUUUUAAAGUUACAAACAAGCUUUGCUUUUUGCAUUUAAGUAGAAUACUUUUAUAUUGUAAGUGCUUCAGAUGUGUGGAGAUGUUAGUUUGCUCUUAUAACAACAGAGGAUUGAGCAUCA	0.408 ratio
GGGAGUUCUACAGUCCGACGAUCAAGAUGGUGGUUGUACAUUAUUUCAUUUAGAAAAUAUAAAAAUUCAUUUUGUUUUGAAGCUAGGUGUUAAACUGGAAUAGCUCUUAUACCCCAGAGAAUGGGGCAGUUGUGCCCUUCCCUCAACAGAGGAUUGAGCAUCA	1.64 ratio
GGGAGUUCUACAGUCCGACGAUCUUACAAUCUUAUACUUAAACUGGUAUUUUCAAACAAUAGCAAACUUUUUUUUUUACAGUUUAGUGUAUUUGGUUUCUACAUGGAAGACUAAACUCAUGCUUAUUGCUAAAACGUGGUCUUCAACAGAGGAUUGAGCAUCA	0.674 ratio
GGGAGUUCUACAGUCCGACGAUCCAGUCAUGGAGAAAAAUAUAUUAAAAUAAUUUGAUGGCACUGAUGUUAAUUCUAGUCUAUUAGUUUUAUAAAAGUUAGGGCUCUUAUUUAGGAACAACAGGAAGUGACUGUUAAGGAGAACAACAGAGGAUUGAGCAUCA	3.27 ratio

Set 3 — method: DHFR PCA, deep sequencing; sample: yeast; with: (+)-ABA 58 µM; reference: wild-type fitted maximum; reading: higher = stronger binding
Target: ABI1, truncated, D143A, DHFR fusion (Arabidopsis thaliana)
Notes: methotrexate growth selection, single substitutions
Starting sequence: PYL1, truncated, DHFR fusion (Arabidopsis thaliana); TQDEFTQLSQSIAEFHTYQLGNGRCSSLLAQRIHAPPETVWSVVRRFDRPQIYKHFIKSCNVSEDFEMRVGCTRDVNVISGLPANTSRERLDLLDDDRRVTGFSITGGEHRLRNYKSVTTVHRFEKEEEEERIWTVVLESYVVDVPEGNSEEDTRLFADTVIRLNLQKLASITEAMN; partner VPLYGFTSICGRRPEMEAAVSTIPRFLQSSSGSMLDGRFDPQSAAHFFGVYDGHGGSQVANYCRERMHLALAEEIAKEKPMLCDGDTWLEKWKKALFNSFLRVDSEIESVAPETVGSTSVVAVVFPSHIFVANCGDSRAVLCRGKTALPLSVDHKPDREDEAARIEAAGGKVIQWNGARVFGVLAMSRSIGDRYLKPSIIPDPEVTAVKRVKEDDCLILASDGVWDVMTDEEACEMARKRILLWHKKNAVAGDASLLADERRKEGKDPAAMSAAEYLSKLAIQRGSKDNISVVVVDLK
Substitution	relative binding score [%]
Y18K	75.8
G81E	2.22
P36L	75.5
S104A	50.8
K54F	-3.04
R132N	99.1
I105P	-27.5
E67N	82.4
G81V	15.3
F15D	29.3
I133Y	79.7
H34T	69.8
E89I	-30.5
W134V	95.6

Set 4 — method: protein-binding microarray; form: double-stranded DNA, one strand shown; sample: in vitro; concentration: 250 nM; notes: 60-bp whole probe; with: salmon DNA 0.4 mg/ml; reference: random background probes; reading: higher = stronger binding; constant ends, left off below: GCCTAGCAC … GTCTTGATTCGCTTGACGCTGCTG
Target: Interferon regulatory factor 5, full length, phosphomimetic (IRF5, Homo sapiens, UniProt Q13568-2, residues 1-514, K96S/S451D/S453D/S456D/S462D)
Sequence	log fluorescence [z-score]
GACGGACTGGGACTGGGGAAGTGCTAG	-0.852
GACGGACTGGGACTCGGGACGTGCTAG	-0.443
GACGGTATCGGTATCCGGACGTGCTAG	6.03
TCATTTTTATTTATAAAACTGTGCTAG	1.11
TTAGAACTGAGTCTCGATTTGTGCTAG	0.61
TTAGGACTAGACACTGGGTTAGTGCTA	-0.234
CTTCATGTGCCTTTATATACGTGCTAG	0.521
GACGATTTCGGCTATCGAGACGTGCTA	4.15
TCGTATGTGACCTTTTTAAGAGTGCTA	0.382
TACCCTTTGAAAGTTGTTTTAGTGCTA	0.533
TCACATATATATATGAAACTGTGCTAG	1.08
GACGGTATCCTTTTCCTGAGGTGCTAG	0.268
GATGGTTTCGACTATCGGGACGTGCTA	8.23
TCAATTCTCTGCTTCTGACTGTGCTAG	0.678
TCAAGTTTCTTTTCTTTACTGTGCTAG	2.48
GACGGTTTCGACTATCGGTACGTGCTA	8.42
TTGGCTTTCCTTTATGTCCTGTGCTAG	0.459
AATAGCTTTTCATTTTTTAACGTGCTA	1.47
TCACTTTACTTTCTTTTACTGTGCTAG	3.6

Set 5 — method: universal PBM; form: double-stranded DNA, one strand shown; sample: in vitro; concentration: not given; reading: higher = stronger binding
Target: Sal-like protein 4, full length isoform B (SALL4, Homo sapiens, UniProt Q9UJQ4-2, residues 1-616)
Notes: 8-mer, flanks averaged, mean of replicates
Sequence	E-score
AGCATTAT	0.346
AGACGGTC	-0.152
CGATAGTC	0.0951
GAATTCCA	0.164
AGCTCCGC	-0.319
CTTCACAA	0.0449
TCCCCTAA	0.0303
GTAGAGAA	-0.0643
GCCGTCCC	-0.231
ACGATGGA	0.0155
GAATTAAA	0.18
AACTTCCT	0.0149
ACCCGGCG	-0.396
AGAGCGAT	-0.23
CCAGTACC	-0.199
CTGTTGCC	-0.14
ACGCTAGA	0.0143
TATGGTGA	0.0735
AATAGGGG	0.12
CATTTAAC	0.234
GTCGAACA	-0.0774
CTTGGGTC	-0.0538
ACTTGGCT	-0.181
ACAAAGAC	0.0669
AGCCATAC	-0.0914

Some of these lines once more (set 1):
Sequence	E-score
TAAGATGA	-0.19
GGTCTCCA	-0.164
TCAATAGA	-0.212
AGAGCTAT	-0.0762
AAGTCGTC	-0.0148
ACCCGCCG	0.463
AGTCTCAT	-0.212
ATGGCTCC	-0.0811
